Assay results collected from several papers.
Compare with care: the assays were run in different laboratories. Several values in a cell are separate wells, animals, samples, runs or records. Positions count from the first letter of the parent shown. ± marks the error that the study gave.
P1: Tif32 791-964 (Saccharomyces cerevisiae); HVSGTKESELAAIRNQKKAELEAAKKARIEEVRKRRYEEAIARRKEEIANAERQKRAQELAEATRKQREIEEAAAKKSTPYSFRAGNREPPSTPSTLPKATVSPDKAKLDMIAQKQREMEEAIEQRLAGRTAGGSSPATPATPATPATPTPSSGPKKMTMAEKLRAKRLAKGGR; partner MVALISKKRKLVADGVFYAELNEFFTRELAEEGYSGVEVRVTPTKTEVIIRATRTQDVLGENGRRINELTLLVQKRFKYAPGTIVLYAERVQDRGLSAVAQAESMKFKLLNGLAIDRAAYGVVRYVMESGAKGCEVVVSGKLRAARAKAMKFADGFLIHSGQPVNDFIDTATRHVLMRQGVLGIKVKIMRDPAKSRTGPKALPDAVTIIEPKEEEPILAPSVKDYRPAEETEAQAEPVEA
P2: Jph2 N-terminal (Mus musculus); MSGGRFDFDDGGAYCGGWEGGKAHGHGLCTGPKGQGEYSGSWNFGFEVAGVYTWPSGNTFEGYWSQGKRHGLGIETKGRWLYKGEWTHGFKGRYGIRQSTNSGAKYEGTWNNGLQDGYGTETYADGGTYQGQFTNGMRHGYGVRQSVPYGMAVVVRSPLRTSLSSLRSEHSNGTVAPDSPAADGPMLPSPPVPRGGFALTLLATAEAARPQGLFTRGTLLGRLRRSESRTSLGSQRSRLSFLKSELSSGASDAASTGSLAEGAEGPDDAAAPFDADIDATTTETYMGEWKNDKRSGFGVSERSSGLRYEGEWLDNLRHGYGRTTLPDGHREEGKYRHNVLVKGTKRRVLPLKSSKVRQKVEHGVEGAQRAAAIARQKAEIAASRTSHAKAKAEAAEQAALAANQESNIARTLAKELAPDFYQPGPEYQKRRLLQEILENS
B1: ABCC3 (Homo sapiens, UniProt O15438); chain MDALCGSGELGSKFWDSNLSVHTENPDLTPCFQNSLLAWVPCIYLWVALPCYLLYLRHHCRGYIILSHLSKLKMVLGVLLWCVSWADLFYSFHGLVHGRAPAPVFFVTPLVVGVTMLLATLLIQYERLQGVQSSGVLIIFWFLCVVCAIVPFRSKILLAKAEGEISDPFRFTTFYIHFALVLSALILACFREKPPFFSAKNVDPNPYPETSAGFLSRLFFWWFTKMAIYGYRHPLEEKDLWSLKEEDRSQMVVQQLLEAWRKQEKQTARHKASAAPGKNASGEDEVLLGARPRPRKPSFLKALLATFGSSFLISACFKLIQDLLSFINPQLLSILIRFISNPMAPSWWGFLVAGLMFLCSMMQSLILQHYYHYIFVTGVKFRTGIMGVIYRKALVITNSVKRASTVGEIVNLMSVDAQRFMDLAPFLNLLWSAPLQIILAIYFLWQNLGPSVLAGVAFMVLLIPLNGAVAVKMRAFQVKQMKLKDSRIKLMSEILNGIKVLKLYAWEPSFLKQVEGIRQGELQLLRTAAYLHTTTTFTWMCSPFLVTLITLWVYVYVDPNNVLDAEKAFVSVSLFNILRLPLNMLPQLISNLTQASVSLKRIQQFLSQEELDPQSVERKTISPGYAITIHSGTFTWAQDLPPTLHSLDIQVPKGALVAVVGPVGCGKSSLVSALLGEMEKLEGKVHMKGSVAYVPQQAWIQNCTLQENVLFGKALNPKRYQQTLEACALLADLEMLPGGDQTEIGEKGINLSGGQRQRVSLARAVYSDADIFLLDDPLSAVDSHVAKHIFDHVIGPEGVLAGKTRVLVTHGISFLPQTDFIIVLADGQVSEMGPYPALLQRNGSFANFLCNYAPDEDQGHLEDSWTALEGAEDKEALLIEDTLSNHTDLTDNDPVTYVVQKQFMRQLSALSSDGEGQGRPVPRRHLGPSEKVQVTEAKADGALTQEEKAAIGTVELSVFWDYAKAVGLCTTLAICLLYVGQSAAAIGANVWLSAWTNDAMADSRQNNTSLRLGVYAALGILQGFLVMLAAMAMAAGGIQAARVLHQALLHNKIRSPQSFFDTTPSGRILNCFSKDIYVVDEVLAPVILMLLNSFFNAISTLVVIMASTPLFTVVILPLAVLYTLVQRFYAATSRQLKRLESVSRSPIYSHFSETVTGASVIRAYNRSRDFEIISDTKVDANQRSCYPYIISNRWLSIGVEFVGNCVVLFAALFAVIGRSSLNPGLVGLSVSYSLQVTFALNWMIRMMSDLESNIVAVERVKEYSKTETEAPWVVEGSRPPEGWPPRGEVEFRNYSVRYRPGLDLVLRDLSLHVHGGEKVGIVGRTGAGKSSMTLCLFRILEAAKGEIRIDGLNVADIGLHDLRSQLTIIPQDPILFSGTLRMNLDPFGSYSEEDIWWALELSHLHTFVSSQPAGLDFQCSEGGENLSVGQRQLVCLARALLRKSRILVLDEATAAIDLETDNLIQATIRTQFDTCTVLTIAHRLNTIMDYTRVLVLDKGVVAEFDSPANLIAARGIFYGMARDAGLA
Chain of UniProt P22310 (whole entry, looked up): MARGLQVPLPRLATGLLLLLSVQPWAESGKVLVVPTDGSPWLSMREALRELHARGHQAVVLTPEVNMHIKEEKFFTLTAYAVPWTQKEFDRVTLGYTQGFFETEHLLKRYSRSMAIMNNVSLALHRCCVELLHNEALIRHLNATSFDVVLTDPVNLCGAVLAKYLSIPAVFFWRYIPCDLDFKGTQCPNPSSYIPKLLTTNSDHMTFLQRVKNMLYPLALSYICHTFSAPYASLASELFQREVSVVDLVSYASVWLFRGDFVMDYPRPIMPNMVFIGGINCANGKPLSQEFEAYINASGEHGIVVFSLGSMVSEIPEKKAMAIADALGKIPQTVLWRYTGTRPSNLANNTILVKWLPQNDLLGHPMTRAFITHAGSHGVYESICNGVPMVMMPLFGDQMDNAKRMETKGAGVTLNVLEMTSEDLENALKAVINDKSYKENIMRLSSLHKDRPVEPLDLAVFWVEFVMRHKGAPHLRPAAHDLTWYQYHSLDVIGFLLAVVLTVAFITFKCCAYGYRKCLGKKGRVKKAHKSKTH
Chain of UniProt Q92887 (whole entry, looked up): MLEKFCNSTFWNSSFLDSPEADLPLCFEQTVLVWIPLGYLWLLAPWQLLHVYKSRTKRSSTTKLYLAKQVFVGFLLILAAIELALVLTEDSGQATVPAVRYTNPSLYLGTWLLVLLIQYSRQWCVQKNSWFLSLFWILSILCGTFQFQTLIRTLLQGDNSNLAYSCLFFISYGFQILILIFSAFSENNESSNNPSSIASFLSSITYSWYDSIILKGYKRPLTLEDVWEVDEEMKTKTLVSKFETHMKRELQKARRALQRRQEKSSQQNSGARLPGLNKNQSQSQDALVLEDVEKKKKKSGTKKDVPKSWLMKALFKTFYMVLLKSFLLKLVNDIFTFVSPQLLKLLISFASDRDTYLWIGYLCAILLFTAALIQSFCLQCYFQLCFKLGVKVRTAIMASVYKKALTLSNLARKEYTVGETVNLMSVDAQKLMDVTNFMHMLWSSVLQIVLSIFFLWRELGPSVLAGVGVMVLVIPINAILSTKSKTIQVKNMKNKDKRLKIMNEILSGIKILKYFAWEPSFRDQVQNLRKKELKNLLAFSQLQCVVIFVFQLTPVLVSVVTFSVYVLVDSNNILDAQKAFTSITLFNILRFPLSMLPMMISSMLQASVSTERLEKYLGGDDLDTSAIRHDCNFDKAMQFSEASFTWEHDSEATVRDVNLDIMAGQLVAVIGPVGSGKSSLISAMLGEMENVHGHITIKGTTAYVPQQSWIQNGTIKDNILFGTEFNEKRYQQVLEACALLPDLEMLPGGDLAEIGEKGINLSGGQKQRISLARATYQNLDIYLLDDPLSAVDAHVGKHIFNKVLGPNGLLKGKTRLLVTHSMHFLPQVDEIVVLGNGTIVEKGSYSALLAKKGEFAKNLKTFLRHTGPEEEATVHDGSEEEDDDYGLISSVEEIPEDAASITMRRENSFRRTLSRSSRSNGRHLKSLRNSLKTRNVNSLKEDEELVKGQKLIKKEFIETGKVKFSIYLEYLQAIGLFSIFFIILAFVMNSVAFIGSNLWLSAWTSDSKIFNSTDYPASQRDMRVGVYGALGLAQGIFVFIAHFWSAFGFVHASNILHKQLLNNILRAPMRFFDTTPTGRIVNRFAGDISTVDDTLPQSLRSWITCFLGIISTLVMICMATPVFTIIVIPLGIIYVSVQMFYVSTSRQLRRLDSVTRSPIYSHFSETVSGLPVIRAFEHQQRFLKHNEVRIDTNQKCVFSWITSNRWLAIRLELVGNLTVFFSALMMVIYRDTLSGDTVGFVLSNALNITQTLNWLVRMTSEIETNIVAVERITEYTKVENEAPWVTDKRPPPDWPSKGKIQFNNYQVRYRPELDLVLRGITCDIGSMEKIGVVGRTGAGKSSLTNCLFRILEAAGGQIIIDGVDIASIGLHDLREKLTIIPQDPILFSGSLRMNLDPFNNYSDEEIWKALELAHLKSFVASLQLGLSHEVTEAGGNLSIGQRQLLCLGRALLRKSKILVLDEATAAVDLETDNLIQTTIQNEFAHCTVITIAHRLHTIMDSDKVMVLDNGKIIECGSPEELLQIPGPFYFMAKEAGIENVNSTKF
Chain of UniProt O94956 (whole entry, looked up): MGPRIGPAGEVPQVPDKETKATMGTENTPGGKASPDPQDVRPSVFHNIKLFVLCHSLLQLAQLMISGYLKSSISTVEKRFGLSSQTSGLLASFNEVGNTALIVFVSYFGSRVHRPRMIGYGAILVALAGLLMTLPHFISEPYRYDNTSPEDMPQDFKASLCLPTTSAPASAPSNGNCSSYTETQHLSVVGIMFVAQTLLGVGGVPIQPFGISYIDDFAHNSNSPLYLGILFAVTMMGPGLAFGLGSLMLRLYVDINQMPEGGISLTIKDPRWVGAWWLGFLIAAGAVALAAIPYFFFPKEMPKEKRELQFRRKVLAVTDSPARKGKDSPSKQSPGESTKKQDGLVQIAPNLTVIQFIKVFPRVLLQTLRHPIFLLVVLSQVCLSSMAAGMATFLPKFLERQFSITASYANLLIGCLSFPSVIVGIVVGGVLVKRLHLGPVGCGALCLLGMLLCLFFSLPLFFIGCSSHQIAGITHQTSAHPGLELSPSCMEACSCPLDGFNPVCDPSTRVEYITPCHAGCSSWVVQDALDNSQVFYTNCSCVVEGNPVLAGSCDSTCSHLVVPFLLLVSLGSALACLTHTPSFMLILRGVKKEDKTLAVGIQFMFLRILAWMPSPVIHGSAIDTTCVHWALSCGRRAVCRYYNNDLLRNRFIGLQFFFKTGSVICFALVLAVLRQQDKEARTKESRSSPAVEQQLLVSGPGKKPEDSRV

Substance | tested on | assay | system | setting | how to read | endpoint | result
CCCC[C@H](NC(=O)COCCOCCNC(=O)CN1CCN(CC(=O)O)CCN(CC(=O)O)CC1)C(=O)N[C@H]1CC(=O)NCCCC[C@@H](C(N)=O)NC(=O)[C@H](Cc2c[nH]c3ccccc23)NC(=O)[C@H](CCCNC(=N)N)NC(=O)[C@@H](Cc2ccccc2)NC(=O)[C@H](Cc2c[nH]cn2)NC1=O [technetium-99m labelled] |  |  | C57 mouse, liver | intravenous, 0.037 MBq, 4 h |  | tissue uptake | 0.25 ± 0.03 %ID/g
P1 R165A K167A R168A L169A K171A G172A G173A R174A | rps3 R116D (Saccharomyces cerevisiae) | GST pull-down |  |  | baseline: unchanged protein, higher = more binding | relative binding | 17%
UGT1A4 (Homo sapiens, UniProt P22310) | CCCCN1C(=O)c2cccc3c(N4CCN(C)CC4)ccc(c23)C1=O | steady-state kinetics |  |  |  | Vmax | 9e-05 µmol/min/mg
AGCTCCAGAAGATAAATTACAGGCAGTAATAGAGGGGAGGTATGTGTGTTGCTTAATTGTGGGTGGGCGGGTGGAACAACTAGGATACTATGACCCC (ssDNA) | TAGLN2 1-220 (Homo sapiens) | MST | single-stranded DNA |  |  | Kd | 50 ± 2 nM
ABCC2 (Homo sapiens, UniProt Q92887) | O=C(c1ccc(OCCN2CCCCC2)cc1)c1c(-c2ccc(O[C@@H]3O[C@H](C(=O)O)[C@@H](O)[C@H](O)[C@H]3O)cc2)sc2cc(O)ccc12 | steady-state kinetics | Sf9 vesicles | pH 7, 37 °C, not purified, with: ATP |  | Vmax | 0.00239 µmol/min/mg
N#C[C@@H]1CC(F)(F)CN1C(=O)CNC(=O)c1ccnc2ccc(OCCCN3CCN(C(=S)Nc4ccc(C[C@H]5CN(Cc6ccccn6)CCN(Cc6ccccn6)CCN(Cc6ccccn6)CCN5Cc5ccccn5)cc4)CC3)cc12 |  | shake flask | n-octanol/PBS | pH 7.4, 203Pb-labelled |  | logD | -0.76 ± 0.03
CC(C)C[C@H](NC(=O)[C@H](Cc1ccc(O)cc1)NC(=O)[C@@H](CCCNC(=N)N)NC(=O)[C@@H](CO)NC(=O)[C@H](Cc1ccccc1)NC(=O)[C@H](CC1CCCCC1)NC(=O)[C@H](CC(=O)O)NC(=O)CN1CCN(CC(=O)O)CCN(CC(=O)O)CCN(CC(=O)O)CC1)C(=O)N[C@@H](Cc1c[nH]c2ccccc12)C(=O)N[C@@H](CO)C(=O)O [copper-64 labelled] |  |  | human, spleen | concentration not given, 3 h |  | activity concentration | 1520 Bq/mL and 1960 Bq/mL and 1600 Bq/mL and 1690 Bq/mL and 1580 Bq/mL and 1190 Bq/mL
CCCC[C@H](NC(=O)CCCCCCCNC(=O)CN1CCN(CC(=O)O)CCN(CC(=O)O)CC1)C(=O)N[C@H]1CC(=O)NCCCC[C@@H](C(N)=O)NC(=O)[C@H](Cc2c[nH]c3ccccc23)NC(=O)[C@H](CCCNC(=N)N)NC(=O)[C@@H](Cc2ccccc2)NC(=O)[C@H](Cc2c[nH]cn2)NC1=O [technetium-99m labelled] |  |  | C57 mouse, intestine | intravenous, 0.037 MBq, 0.5 h |  | tissue uptake | 21.2 ± 2.7 %ID
SLCO2B1 (Homo sapiens, UniProt O94956) | O=C(c1ccc(OCCN2CCCCC2)cc1)c1c(-c2ccc(O[C@@H]3O[C@H](C(=O)O)[C@@H](O)[C@H](O)[C@H]3O)cc2)sc2cc(O)ccc12 | steady-state kinetics | HEK293 cells | pH 7.4, 37 °C |  | Vmax | 0.00014 µmol/min/mg
C[C@@H](O)[C@@H]1NC(=O)[C@H](CCCCN)NC(=O)[C@@H](Cc2c[nH]c3ccccc23)NC(=O)[C@H](Cc2ccc(O)cc2)NC(=O)[C@@H](NC(=O)[C@@H](Cc2ccccc2)NC(=O)CN2CCN(CC(=O)O)CCN(CC(=O)O)CCN(CC(=O)O)CC2)CSSC[C@@H](C(=O)N[C@H](CO)[C@@H](C)O)NC1=O [gallium-67 labelled] |  | gamma counting | ICR mice, male, pancreas | iv, 11 kBq/mouse, 1 h |  | tissue uptake | 8.12 ± 1.4 %ID/g
P2 R160E S165F | CaV1.2 (Mus musculus) | ITC |  |  | baseline: unchanged protein | relative binding | 1.3
B1 (ABCC3) | O=C(c1ccc(OCCN2CCCCC2)cc1)c1c(-c2ccc(O[C@@H]3O[C@H](C(=O)O)[C@@H](O)[C@H](O)[C@H]3O)cc2)sc2cc(O)ccc12 | steady-state kinetics | Sf9 vesicles | pH 7, 37 °C, not purified, with: ATP |  | Vmax | 0.000213 µmol/min/mg

Excerpt of the above:
Substance | tested on | assay | system | setting | how to read | endpoint | result
P2 R160E S165F | CaV1.2 (Mus musculus) | ITC |  |  | baseline: unchanged protein | relative binding | 1.3
